Assay results from different studies.
Lines come from different studies, so protocols differ. ± gives the spread as reported.

SMILES = O=c1oc2cc(O)ccc2c2ccc(O)cc12; test = potentiometric titration; system = water, extrapolated from methanol/water; setting = 25 °C; measurement = pKa2; result = 9.05
SMILES = C/C=C/C=C/C/C=C/CCCCCCCc1cccc(O)c1O; system = female Kunming mice, tumour-bearing, heart; setting = intravenous, 10 mg/kg, 4 h; measurement = tissue concentration; result = 5930 ± 870 ng/g
SMILES = COC(=O)C[C@](O)(CCCC(C)(C)OC(C)=O)C(=O)O[C@@H]1C(OC)=C[C@]23CCCN2CCc2cc4c(cc2[C@H]13)OCO4; system = CD1 mouse, liver; setting = subcutaneous, 1 mg/kg, 8 h, below quantification limit 1.00 ng/mL; measurement = tissue concentration; result = not detected
SMILES = C=Cc1c(C)c2cc3nc(c(CC(=O)O)c4[nH]c(cc5nc(cc1[nH]2)C(C)=C5CC)c(C)c4C(=O)O)[C@@H](CCC(=O)NCCCC[C@H](NC(C)=O)C(=O)N[C@@H](Cc1ccccc1)C(=O)N[C@@H](Cc1ccccc1)C(=O)N[C@H](C(=O)N[C@@H](CC(C)C)C(=O)N[C@@H](CCCCN)C(=O)N[C@@H](CO)C(=O)NCC(=O)N[C@@H](CCC(N)=O)C(=O)N[C@@H](Cc1ccc(O)cc1)C(=O)N[C@@H](C)C(=O)N[C@@H](CO)C(=O)N[C@@H](Cc1ccc(O)cc1)C(=O)N[C@@H](Cc1c[nH]cn1)C(=O)N[C@@H](CS)C(=O)N[C@@H](Cc1c[nH]c2ccccc12)C(=O)N[C@@H](CS)C(=O)N[C@@H](Cc1c[nH]c2ccccc12)C(=O)N[C@@H](CCCNC(=N)N)C(=O)N[C@@H](CC(=O)O)C(=O)N1CCC[C@H]1C(=O)NCC(=O)N[C@@H](CCCNC(=N)N)C(=O)N[C@@H](CO)C(=O)NCC(=O)NCC(=O)N[C@@H](CO)C(=O)N[C@@H](CCCCN)C(N)=O)C(C)C)[C@@H]3C; test = fluorescence imaging; system = mice bearing 4T1 tumours, tumour; setting = dose not given; measurement = tumour retention time; result = > 7 days
SMILES = CCCCCCCCCn1cc(C(N)(CO)CO)nn1; system = APP/PS1 mouse; setting = oral, up to 10 mg/kg; measurement = survival; result = no effect
SMILES = CC(C)C[C@H](NC(=O)[C@H](CCCCN)NC(=O)[C@H](CCC(=O)O)NC(=O)[C@H](C)NC(=O)[C@@H](NC(=O)[C@H](CCCCN)NC(=O)[C@H](CC(=O)O)NC(=O)[C@H](Cc1ccc(O)cc1)NC(=O)[C@H](Cc1ccccc1)NC(=O)[C@H](C)NC(=O)[C@H](CCCCN)NC(=O)[C@H](CC(C)C)NC(=O)[C@H](Cc1c[nH]c2ccccc12)NC(=O)[C@@H](N)CC(=O)O)C(C)C)C(=O)N[C@@H](CCCCN)C(=O)N[C@@H](CCC(=O)O)C(=O)N[C@@H](C)C(=O)N[C@@H](Cc1ccccc1)C(=O)N1CCC[C@H]1C(=O)N[C@@H](CC(=O)O)C(=O)N[C@@H](Cc1c[nH]c2ccccc12)C(=O)N[C@@H](C)C(=O)N[C@@H](CCCCN)C(=O)N[C@@H](C)C(=O)N[C@@H](C)C(=O)N[C@@H](Cc1ccc(O)cc1)C(=O)N[C@@H](CC(=O)O)C(=O)N[C@@H](CCCCN)C(=O)N[C@@H](C)C(=O)N[C@@H](C)C(=O)N[C@@H](CCC(=O)O)C(=O)N[C@@H](CCCCN)C(=O)N[C@@H](C)C(=O)N[C@@H](CCCCN)C(=O)N[C@@H](CCC(=O)O)C(=O)N[C@@H](C)C(=O)N[C@@H](C)C(=O)O; system = cynomolgus monkey female, plasma; setting = intravenous infusion, 8 mg/kg every other day, day 27; measurement = volume of distribution at steady state; result = 0.054 L/kg
SMILES = CCCCCCCCCCCCC(=O)O.O=C1CCCC2C3CCCN4CCCC(CN12)C34 (centres unmarked); test = electrical conductivity; system = water; setting = 313.15 K; measurement = standard enthalpy of aggregation; result = -0.511 kcal/mol
SMILES = CN1Cc2c(Cl)cc(Cl)cc2[C@H](c2ccc(S(=O)(=O)NCCOCCOCCNC(=O)CCC(=O)NCCOCCOCCNS(=O)(=O)c3ccc([C@@H]4CN(C)Cc5c(Cl)cc(Cl)cc54)cc3)cc2)C1; system = Sprague Dawley rat male, feces; setting = oral, 0.1 mg/kg, up to 72 h; scale = baseline: dose; measurement = fecal recovery of parent; result = 46 ± 8%
SMILES = CC1=CC=c2ccc3c4c2[N]1[Re](=[C]=O)(=[C]=O)(=[C]=O)([C]#[N+]c1c(C)cccc1C)[N]4C(C)=CC=3.O=S(=O)([O-])C(F)(F)F; system = PBS, up to 1% DMSO; setting = pH 7.4, air-equilibrated; measurement = emission maximum; result = 503 nm
SMILES = COc1cc(NC(=O)C(=O)c2c(C)n(Cc3ccc(Cl)cc3)c3ccc(C)cc23)ccn1; system = male cynomolgus monkey, plasma; setting = oral, 10 mg/kg; measurement = Cmax; result = 489 ng/mL
SMILES = CC(C)(C)C(=O)OCOP(=O)(OCOC(=O)C(C)(C)C)C1CCCN(O)C1=O (centres unmarked); system = nude mice; setting = intravenous, no hemolytic anemia; measurement = tolerated dose; result = ≤ 10 mg/kg/day

Excerpt of the above:
SMILES = CC(C)(C)C(=O)OCOP(=O)(OCOC(=O)C(C)(C)C)C1CCCN(O)C1=O (centres unmarked); system = nude mice; setting = intravenous, no hemolytic anemia; measurement = tolerated dose; result = ≤ 10 mg/kg/day
